Results from different studies.
Parts stem from different laboratories: compare values within a part only.
UniProt P25021, sequence (whole entry, looked up): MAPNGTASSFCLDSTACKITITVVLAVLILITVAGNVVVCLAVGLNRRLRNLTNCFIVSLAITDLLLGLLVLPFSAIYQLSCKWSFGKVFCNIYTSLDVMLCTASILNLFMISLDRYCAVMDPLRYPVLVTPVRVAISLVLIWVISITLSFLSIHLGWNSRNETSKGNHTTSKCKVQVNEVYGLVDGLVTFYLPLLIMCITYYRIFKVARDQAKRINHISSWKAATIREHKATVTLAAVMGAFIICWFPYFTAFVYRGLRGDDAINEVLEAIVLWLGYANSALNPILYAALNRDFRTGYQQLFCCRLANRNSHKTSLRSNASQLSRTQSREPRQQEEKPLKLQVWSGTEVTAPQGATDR
UniProt P21728, sequence (whole entry, looked up): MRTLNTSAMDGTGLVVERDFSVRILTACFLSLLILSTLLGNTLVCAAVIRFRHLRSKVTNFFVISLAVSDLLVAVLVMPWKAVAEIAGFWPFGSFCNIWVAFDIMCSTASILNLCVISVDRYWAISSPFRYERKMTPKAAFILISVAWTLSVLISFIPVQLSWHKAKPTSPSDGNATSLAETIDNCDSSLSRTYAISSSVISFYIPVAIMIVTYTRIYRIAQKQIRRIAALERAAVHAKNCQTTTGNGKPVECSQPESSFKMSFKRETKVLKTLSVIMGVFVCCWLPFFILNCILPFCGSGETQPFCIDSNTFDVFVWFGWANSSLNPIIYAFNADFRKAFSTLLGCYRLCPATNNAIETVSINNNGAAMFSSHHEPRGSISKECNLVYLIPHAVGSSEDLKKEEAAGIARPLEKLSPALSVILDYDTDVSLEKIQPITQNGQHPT

Block 1
Structure (SMILES): C[C@@H](NC(=O)Nc1cc2[nH]ncc2c(CO)n1)c1ccccc1
Read-out: cell-free assay
Tested at: 10 µM
target | inhibition [%]
Histamine H2 receptor (HRH2, Homo sapiens, UniProt P25021) | 11.8
Beta-2 adrenergic receptor (ADRB2, Homo sapiens, UniProt P07550) | 1.36
D(1A) dopamine receptor (DRD1, Homo sapiens, UniProt P21728) | -3.5

Block 2
Target: Runt-related transcription factor 1, full length (RUNX1, Homo sapiens, UniProt Q01196-8, residues 1-480)
Technique: protein-binding microarray
Form: hairpin DNA
Matrix: in vitro
Tested at: not given
Setting: whole hairpin DNA, median over replicate spots
Relative to: not given
Direction: higher = stronger binding
Oligonucleotide | median fluorescence
GAGGCCCGACCGCAACAGCCTCCTGGCTGTTGCGGTCGGGCCTCACACTC (5mC at 37) | 4320 a.u.
GAGGCCCAACCGCAAGAGCCTCCTGGCTCTTGCGGTTGGGCCTCACACTC (5mC at 29) | 7270 a.u.
GAGGCCTGTGGCGGTTGGCCTCCTGGCCAACCGCCACAGGCCTCACACTC (5mC at 35) | 2730 a.u.
GAGGCCTGTTTTGGTTGGCCTCCTGGCCAACCAAAACAGGCCTCACACTC | 1720 a.u.
GAGGCCCACGCGCAACAGCCTCCTGGCTGTTGCGCGTGGGCCTCACACTC | 1810 a.u.
GAGGCCTATCGCGGTTGGCCTCCTGGCCAACCGCGATAGGCCTCACACTC | 2400 a.u.
CTCAGTTTTGTGGGCTGGACTCCTGTCCAGCCCACAAAACTGAGACACTC | 2230 a.u.
CTCAGTTCGGTGGGCTGGACTCCTGTCCAGCCCACCGAACTGAGACACTC (5mC at 8 36) | 1960 a.u.

Block 3
Target: Myc proto-oncogene protein, bHLH-zipper, MAX partner unstated (MYC, Homo sapiens, UniProt P01106, residues 368-449)
UniProt P01106, sequence (368-449, looked up): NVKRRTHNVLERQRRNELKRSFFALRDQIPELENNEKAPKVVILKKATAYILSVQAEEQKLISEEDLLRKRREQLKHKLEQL
Technique: protein-binding microarray
Form: double-stranded DNA, one strand shown
Matrix: in vitro
Tested at: not given
Setting: k-mer, scored over probes, only values ≥0.25
Direction: higher = stronger binding
Oligonucleotide | E-score
CATGAGCC | 0.278
ACCTTGTG | 0.303
ATCGCGTG | 0.402
CGCGCACG | 0.404
ATCACCAC | 0.259
CCACGCGC | 0.451
CACGCAAC | 0.294
CTCGCCAC | 0.273

Further values, each from its own experiment
MAPK13: Mitogen-activated protein kinase 13 (MAPK13, Homo sapiens, UniProt O15264)
UniProt O15264, sequence (whole entry, looked up): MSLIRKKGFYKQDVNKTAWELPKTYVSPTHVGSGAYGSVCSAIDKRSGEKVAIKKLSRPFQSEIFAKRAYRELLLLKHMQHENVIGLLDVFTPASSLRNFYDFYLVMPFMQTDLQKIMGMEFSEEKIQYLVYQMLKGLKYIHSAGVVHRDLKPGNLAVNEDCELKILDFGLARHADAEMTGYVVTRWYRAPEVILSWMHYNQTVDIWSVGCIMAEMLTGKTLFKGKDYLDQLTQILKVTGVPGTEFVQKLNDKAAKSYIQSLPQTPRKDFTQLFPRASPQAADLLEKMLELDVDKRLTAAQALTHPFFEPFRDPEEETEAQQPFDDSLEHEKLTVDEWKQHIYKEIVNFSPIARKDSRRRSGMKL
Substance | target or system | test | system | setting | scale | endpoint | result
O=C(O)c1ccc2c3c1cccc3c(=O)n1c3ccccc3nc21 | MAPK13 | enzyme activity, inhibitor | – | 0.5 µM | relative to: control | remaining activity | 104%
MDH2 (Homo sapiens, UniProt P40926) | DOCK7 (Homo sapiens, UniProt Q96N67) | cross-linking MS | cell fractions | with: DSSO | – | cross-linked residues | T235 to S1826
COc1ccc(OC)c2c(=S)c3ccccc3[nH]c12 | MAPK13 | enzyme activity, inhibitor | – | 0.5 µM | relative to: control | remaining activity | 103%
CCOC(=O)c1c(C)[nH]c(/C=C2\C(=O)Nc3ccccc32)c1C | MAPK13 | enzyme activity, inhibitor | – | 0.5 µM | relative to: control | remaining activity | 98.3%

For quick reference, copied from above (further values, each from its own experiment):
Substance | target or system | test | system | setting | scale | endpoint | result
MDH2 (Homo sapiens, UniProt P40926) | DOCK7 (Homo sapiens, UniProt Q96N67) | cross-linking MS | cell fractions | with: DSSO | – | cross-linked residues | T235 to S1826
COc1ccc(OC)c2c(=S)c3ccccc3[nH]c12 | MAPK13 | enzyme activity, inhibitor | – | 0.5 µM | relative to: control | remaining activity | 103%
